Results of several laboratories.
UniProt Q14164, sequence (whole entry, looked up): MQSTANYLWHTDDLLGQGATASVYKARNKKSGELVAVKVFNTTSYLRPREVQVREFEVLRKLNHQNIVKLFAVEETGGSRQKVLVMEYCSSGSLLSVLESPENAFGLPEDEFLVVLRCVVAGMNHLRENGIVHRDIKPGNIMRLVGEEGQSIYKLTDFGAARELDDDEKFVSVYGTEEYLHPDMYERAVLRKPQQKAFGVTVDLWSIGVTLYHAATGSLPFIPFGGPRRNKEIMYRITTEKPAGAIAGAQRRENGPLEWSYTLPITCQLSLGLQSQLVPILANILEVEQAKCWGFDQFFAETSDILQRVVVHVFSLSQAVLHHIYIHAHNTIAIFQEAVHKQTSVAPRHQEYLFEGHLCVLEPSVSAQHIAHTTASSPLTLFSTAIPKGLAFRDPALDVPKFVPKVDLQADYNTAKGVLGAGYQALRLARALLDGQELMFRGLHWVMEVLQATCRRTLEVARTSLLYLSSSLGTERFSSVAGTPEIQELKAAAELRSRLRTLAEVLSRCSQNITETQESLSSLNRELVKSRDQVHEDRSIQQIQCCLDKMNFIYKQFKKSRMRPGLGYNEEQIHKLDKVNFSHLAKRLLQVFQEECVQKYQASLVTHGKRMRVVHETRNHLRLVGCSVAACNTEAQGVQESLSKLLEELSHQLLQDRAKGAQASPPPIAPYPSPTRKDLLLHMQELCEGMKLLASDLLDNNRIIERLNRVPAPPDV

| Compound | target or system | assay | test system | conditions | scale | endpoint | value |
| --- | --- | --- | --- | --- | --- | --- | --- |
| C=CC(=O)Nc1cccc(Cn2ncc3cnc(Nc4cnn(CCOC)c4)nc32)c1 | PAK3 human | binding, KINOMEscan |  | 100 nM | lower = stronger binding | percent of control | 95% |
| NC(=O)c1ccc(-c2ccccc2Cl)c2c3c([nH]c12)CC[C@H](N)C3 | K562 parental | cell proliferation |  |  |  | IC50 | 0.0209 µM |
| C=CC(=O)N1CCCC(n2c(=O)c3ncccc3n(Cc3ccc(Oc4ccccc4)cc3)c2=O)C1 (stereo not shown) | Pfeiffer | cell growth or viability, MTT |  | 72 h |  | IC50 | 12 µM |
| Cn1ncc(-c2ccc3c(=O)[nH]nc(CN)c3c2)c1-c1c(F)c(Cl)cc(OC2CC2)c1C#N | NCI-H1650 | cell viability, inhibitor, CellTiter-Glo |  | 120 h, baseline-subtracted |  | IC50 | 0.1 µM |
| CNS(=O)(=O)Nc1nccc(Cc2c(C)c3ccc(Oc4ncccc4F)cc3oc2=O)c1F | SW1990 | cell viability |  | 7 days |  | IC50 | 0.00791 µM |
| CCOc1cncc(-c2ccc(NC(=O)C3(c4ccnc(NS(=O)(=O)C5CC5)n4)CCOCC3)nc2)n1 | LS174T | cell growth or viability, ATP luminescence |  | 72 h |  | IC50 | 0.231 µM |
| Nc1ncc(-c2cc(-c3cnn(CC(F)(F)F)c3)ncc2F)nc1C(=O)NC1CNCC(F)C1 (stereo not shown) | PRP4 | KINOMEscan |  | 1 µM | reference: DMSO control | remaining binding | 95% |
| Cc1nn(-c2cccc(N)c2)c(=O)c2cnc(Nc3ccc(N4CCNCC4)cc3)nc12 | Inhibitor of nuclear factor kappa-B kinase subunit epsilon (IKBKE, Homo sapiens, UniProt Q14164) | SelectScreen kinase |  |  |  | IC50 | > 10 µM |
| CCN(C(=O)c1cc(F)ccc1Oc1nncnc1N1CCC2(C1)CN(C(CCCN(C)CCOC)C(C)C)C2)C(C)C (stereo not shown) | OCI-AML-3 (NPM1c) | inhibitor, QuantiGene multiplex, refers to: FLT3 mRNA |  |  |  | IC50 | > 2.32 µM |
| CC(C)c1ccc(N(C)c2ccc3c(c2)OCC[C@H]3CNc2cnccc2C(=O)O)cc1 | NCI-H1694 | cell growth or viability, ATP luminescence |  | 7 days |  | IC50 | 0.00175 µM |
| COC1CN([C@H]2CC[C@H]([C@@]3(C)Oc4c(Cl)cc(C(=O)NCc5c(SC)cc(C)[nH]c5=O)c(C)c4O3)CC2)C1 |  | RNA-seq, refers to: MUSTN1 mouse homolog | mouse, HT-1376 xenograft, whole blood | dose not given | reference: vehicle | log2 fold change | 0.539 |
| CN1CCC(N[C@@H]2CCc3[nH]c4c(C(N)=O)ccc(-c5ccccc5Cl)c4c3C2)CC1 | K562 parental | cell proliferation |  |  |  | IC50 | 0.0241 µM |
| COc1ccnc(-c2cc(OC)ccn2)c1.Cc1ccc2c(Cl)cc(Cl)c([O-])c2n1.Cc1ccc2c(Cl)cc(Cl)c([O-])c2n1.[Co+2] | BEL-7404 | cell growth or viability, MTT |  | 48 h |  | IC50 | 5.34 µM |
